Experimental data of several laboratories.
Numbers after ± are the reported error.

SMILES | cell line | read-out | technique | time | setting | IC50
N#C/C(=C\c1cn(-c2ccccc2)nc1-c1ccc(F)cc1)c1nc2ccccc2[nH]1 | MRC5 | cell growth or viability | ATP luminescence | 72 h | – | 80 µM
CC(C)=CCc1c2c(c(O)c3c(=O)c(-c4ccc(O)cc4O)coc13)C=CC(C)(C)O2 | NHDF | cell growth or viability | MTT | 24 h | – | 30.9 µM
CCCCn1cc(C(=O)O)c(=O)c2cc(F)c3c(nnn3-c3ccccc3OC)c21 | A375-S2 | cell growth | SRB | 72 h | – | 12.5 ± 1.26 µg/mL
CC(=O)OCC1OC(n2cc(C=CBr)c(=O)[nH]c2=O)C2CC=CCC12 (mixture of isomers) | PHA-stimulated human PBM cells, uninfected | cytotoxicity | – | 6 days | – | > 100 µM
CCCCn1cc(C(=O)O)c(=O)c2cc(F)c(Nc3ccccc3OC)c([N+](=O)[O-])c21 | MCF7 | cell growth | SRB | 72 h | – | 30.4 ± 0.92 µg/mL
CC(C)=CCOc1ccc(-c2coc3cc4c(c(O)c3c2=O)C=CC(C)(C)O4)cc1 | NHDF | cell growth or viability | MTT | 24 h | – | > 100 µM
CC(=O)O[C@@H]1[C@H](OC(C)=O)[C@@H](C)O[C@H]1n1cc(F)c(NC(=O)/C=C/c2ccc(O)c(O)c2)nc1=O | NHDF | – | MTT | 72 h | 10% FBS | 163 ± 4.33 µM
CCCCn1cc(C(=O)O)c(=O)c2cc(F)c(Nc3cc(OC)c(OC)c(OC)c3)c([N+](=O)[O-])c21 | A375-S2 | cell growth or viability | SRB | – | – | 56.2 µM
CC1OC(Oc2c(-c3ccc(O)cc3)oc3cc(O)cc(O)c3c2=O)C(OC(=O)C=Cc2ccc(O)cc2)C(O)C1OC(=O)C=Cc1ccc(O)cc1 (stereo not shown) | LPC-H12 mouse liver cancer | cell growth | – | 48 h | – | > 10 µM
CCCCn1cc(C(=O)O)c(=O)c2cc(F)c3c(nnn3-c3ccc(OC)cc3)c21 | MCF7 | cell growth or viability | SRB | – | – | 431 µM
CC(=O)OCC1OC(n2ccc(=O)[nH]c2=O)C2CC=CCC12 (mixture of isomers) | PHA-stimulated human PBM cells, uninfected | cytotoxicity | – | 6 days | – | > 100 µM
CCCCn1cc(C(=O)O)c(=O)c2cc(F)c(Nc3cccc(OC)c3)c([N+](=O)[O-])c21 | A375-S2 | cell growth | SRB | 72 h | – | 174 ± 25.8 µg/mL
CC(=O)Oc1ccc(/C=C/C(=O)Nc2nc(=O)n([C@@H]3O[C@H](C)[C@@H](OC(C)=O)[C@H]3OC(C)=O)cc2F)cc1 | NHDF | – | MTT | 72 h | 10% FBS | 96 µM
COc1ccc(-c2nn(-c3ccccc3)cc2/C=C(\C#N)c2nc3ccccc3[nH]2)cc1 | MRC5 | cell growth or viability | ATP luminescence | 72 h | – | > 100 µM
CC(=O)OCC1OC(n2cc(C)c(=O)[nH]c2=O)C2CC=CCC12 (mixture of isomers) | PHA-stimulated human PBM cells, uninfected | cytotoxicity | – | 6 days | – | > 100 µM
COc1cc(-c2coc3cc(O)cc(O)c3c2=O)ccc1O | NHDF | cell growth or viability | MTT | 24 h | – | > 100 µM
N#C/C(=C\c1cn(-c2ccccc2)nc1-c1ccc(Cl)cc1Cl)c1nc2ccccc2[nH]1 | MRC5 | cell growth or viability | ATP luminescence | 72 h | – | > 100 µM
CC(=O)Oc1ccccc1/C=C/C(=O)Nc1nc(=O)n([C@@H]2O[C@H](C)[C@@H](OC(C)=O)[C@H]2OC(C)=O)cc1F | NHDF | – | MTT | 72 h | 10% FBS | 98.5 ± 10.5 µM
Oc1c(Cl)cc(Cl)c2cccnc12 | MRC5 | cell growth or viability | MTT | 48 h | – | 28 µM
CC(=O)Oc1cccc(/C=C/C(=O)Nc2nc(=O)n([C@@H]3O[C@H](C)[C@@H](OC(C)=O)[C@H]3OC(C)=O)cc2F)c1 | NHDF | – | MTT | 72 h | 10% FBS | 60 ± 3.17 µM
Nc1nc(Cl)nc2c1ncn2C1OC(CO)C2CC=CCC21 (mixture of isomers) | PHA-stimulated human PBM cells, uninfected | cytotoxicity | – | 6 days | – | > 100 µM
N#C/C(=C\c1cn(-c2ccccc2)nc1-c1ccc(Br)cc1)c1nc2ccccc2[nH]1 | MRC5 | cell growth or viability | ATP luminescence | 72 h | – | > 100 µM
